Experimental data collected from several papers.
Protocols differ between the studies behind these lines. ± marks the error that the study gave.

With `CC(C)c1ccc(N(C)c2ccc3c(c2)OCC[C@H]3CNc2cnccc2C(=O)O)cc1` the IC50 was no less than 10 µM (DMS-153; cell growth or viability, ATP luminescence; 7 days).
With `O=C1C=C(O)C(=O)c2ccccc21` the IC50 was 276 µM (HuCC-A1; cell growth or viability, MTT).
The IC50 of `C[C@H](c1ccc(Br)cc1)N1C(=O)C2=Nc3ccccc3CN2C1=S` is reported as 0.532 ± 0.09 µM (CEM/ADR5000 (P-gp overexpressing, multidrug resistant); cell viability, resazurin; 72 h).
The IC50 of `NC(=O)c1ccc(-c2ccccc2Cl)c2c3c([nH]c12)CCC(N)C3` (centres unmarked) is reported as 0.00173 µM (RBE; cell growth or viability; 96 h).
The IC50 of `CNS(=O)(=O)Nc1nccc(Cc2c(C)c3ccc(Oc4ncccc4F)cc3oc2=O)c1F` is reported as greater than 1 µM (SK-HEP1; cell viability; 7 days).
With `COc1ccc(NC(=O)c2ccc3[nH]c(-c4ccc(N(C)C)cc4)nc3c2)cn1` the IC50 was 9.68 µM (ZR-75-1; cell growth, CellTiter-Glo).
`C[n+]1nn(CCCCCCCCCCN2C(=O)C=CC2=O)cc1COCCCCCCCCCCN1C(=O)C=CC1=O` gave an IC50 of 18.2 µM (L929; cell growth or viability; 72 h).
The IC50 of `O=C1CCC(N2C(=O)c3ccc(N4CCC(C(=O)N5CCC(CCN6CCC(CNC(=O)c7cccc(-c8noc(C(F)(F)F)n8)c7)(c7nc(-c8ccccc8)cs7)CC6)CC5)CC4)cc3C2=O)C(=O)N1` (centres unmarked) is reported as 1.96 µM (OCI-Ly10; cell growth or viability, CCK-8; 7 days).
For `C=CC(=O)N1CCCC(n2c(=O)c3ncccc3n(Cc3ccc(Oc4ccccc4)cc3)c2=O)C1` (centres unmarked), the IC50 was 10 µM (RCK8; cell growth or viability, MTT; 72 h).
The IC50 of `CCOc1cncc(-c2ccc(NC(=O)C3(c4ccnc(NS(=O)(=O)C5CC5)n4)CCOCC3)nc2)n1` is reported as 10 µM (NUGC-4; cell proliferation, CellTiter-Glo; 72 h, Gastric cancer).
The IC50 of `C=CS(=O)(=O)NCCCCCCCCOCc1cn(CCCCCCCCNS(=O)(=O)C=C)nn1` is reported as 11 µM (L929; cell growth or viability; 72 h).
`O=C1C2=Nc3ccccc3CN2C(=S)N1c1ccc([N+](=O)[O-])cc1` has an IC50 of 26.8 ± 1.67 µM (CEM/ADR5000 (P-gp overexpressing, multidrug resistant); cell viability, resazurin; 72 h).
For `C=CC(=O)NCCCCOCc1cn(CCCCNC(=O)C=C)n[n+]1C`, the IC50 was greater than 50 µM (L929; viability, alamarBlue; 3 days).
`O=C1C(=NN=c2[nH]ccs2)c2cc(Cl)ccc2N1CCn1ncc2c(=O)[nH]cnc21` gave an IC50 of 2.15 µg/mL (BALB/3T3 clone A31; cell growth or viability, SRB; 72 h).

Excerpt of the above:
`C[n+]1nn(CCCCCCCCCCN2C(=O)C=CC2=O)cc1COCCCCCCCCCCN1C(=O)C=CC1=O` gave an IC50 of 18.2 µM (L929; cell growth or viability; 72 h).
